Measured values collected from several papers.
Each numbered part is a random draw from the data of one study; scales do not carry over between parts.

Set 1
Target: Sal-like protein 4, full length isoform B (SALL4, Homo sapiens, UniProt Q9UJQ4-2, residues 1-616)
Method: universal PBM
Form: double-stranded DNA, one strand shown
Medium: in vitro
Concentration: not given
Setting: 8-mer, flanks averaged, mean of replicates
Direction: higher = stronger binding
Oligonucleotide	E-score
TCGTTAAA	0.141
AGCCGGGA	-0.27
AGGTCACC	-0.212
CTTTTTTC	0.108
ATCGGCAA	-0.0597
ATCCGATC	-0.0343
AAAAGTAC	0.184
GTTGAGGA	-0.0741
AGGCATTA	0.0206
GCCCAAGC	-0.199
AACAGTGG	-0.287
GCAGACTA	-0.0694
TCCCGGGA	-0.265
GTACGGGA	-0.0913
AAAGGAAC	-0.0156
GGACGCCC	-0.274
TCCACGAA	0.135
AAGATTGC	0.0954
GTTGATCA	0.0711
TCTATAAA	0.364
ATAAGACC	0.171
AGTGGAGC	-0.0726
GACAACCC	-0.269

Set 2
Target: RING finger protein unkempt homolog, zinc fingers 1-6, GST-SBP tag (UNK, Homo sapiens, UniProt Q9C0B0, residues 30-357)
Sequence of UniProt Q9C0B0 (30-357, looked up): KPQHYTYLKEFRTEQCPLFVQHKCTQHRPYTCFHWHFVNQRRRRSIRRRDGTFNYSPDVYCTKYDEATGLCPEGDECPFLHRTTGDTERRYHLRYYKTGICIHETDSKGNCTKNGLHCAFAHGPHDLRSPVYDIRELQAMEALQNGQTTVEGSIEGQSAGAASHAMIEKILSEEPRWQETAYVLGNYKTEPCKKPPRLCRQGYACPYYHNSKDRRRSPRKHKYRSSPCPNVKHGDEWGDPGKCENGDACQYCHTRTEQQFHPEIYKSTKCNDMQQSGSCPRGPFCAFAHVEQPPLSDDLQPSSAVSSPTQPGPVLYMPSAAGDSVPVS
Method: RNA Bind-n-Seq
Form: RNA
Medium: in vitro
Concentration: not given
Setting: RNA with constant flanks, ends assumed
Relative to: input RNA pool
Direction: higher = stronger binding
Constant ends, left off below: GGGAGUUCUACAGUCCGACGAUC … CAACAGAGGAUUGAGCAUCA
Oligonucleotide	bound/input enrichment
ACAAUUCUUCAAGAAAAACUUCAAGAAAUCAGAAAACAUUAUCUGUCAUUAAAAUCUGAAGCCGCUUCCAUUGAUCGGAGGAGAAAGCGUUUAAAGAAGAAAGAGAGAGAAAGUGCUGCU	0.36 ratio
GAACAAUCCUUGGAAACUGCUAAGGCAGUAAAGGAGCGCUAUAGUUAUGUCUGCCCAGAUUCCGUAAAAGAAUUUAACAAGUAUGAUACAGAUGGGUCAAAAUGGAUUAAACAGUAUACU	0.361 ratio
CCCAUCAUUGAGUCUUCCUCAAAUAUCAAAUUUGGAUGUUUUCAAUGGUACUAUCCUGAAUCCGCUUUCCAGUUCAAAGAUGCAGGGCUAAGUAUCUUCAACAAUACAUGGAGUAACAUU	0.197 ratio
GAUAACUGUCGAGAAGUGAUUAUUACACCAAAUUCUGCAUGGGGUGGAGAAGGCAGCCCCGGAUGUGGCAUUGGAUAUGGUUAUUUGCAUCGAAUACCUACACGCCCAUUUGAGGAAGGA	0.573 ratio
UUUCCUCACAAAUGUGAGGUCUGUGAUAAAGGUUUUCAUCGUCCUUCUGAGCUCAAAAAGCACCGUGAUAUCCAUAAGGGUAGGAAGAUUCAUCAGUGCAGGCACUGUGACUUUAAAACA	0.132 ratio
AAAGAACUGAUAGGAAAAAAAAUCCUCUGUCACUUUUUUUUUUAAAAAAAGAAAACCUUGUUCCGAUACAAAGUCUUGUAUAAAUUAUAAUUUUUAUUUAAUAAACCUAAAAUGCUCUGU	19.1 ratio
AGCUGGGCAGGGGGUAACUUUACUGAUUUGGGGGUGGUUUUUAGUUUAAUUUUUCUUUUCCCGCUUCCCAUCGACGGUCAGUGCGCACGUUGUAAUCAGCUGAGGCCAUGUCAGGAGACG	2.03 ratio
CGGAAAGCCACCAAGUGGGCACAGUCAGGCCUCAUCGUCAGCAUUGGGCCACCUGCCGAGUCUAUCAACCCAGAGACUGUGAGUGGACUAUCCACAGGCGACAAAAAGAAAACUGCCCAA	0.124 ratio
UGAAGAACAUUGUUGCUGACAAAGGAUUUUCUGGGUUAUUUACAGGUCUAAUUCCUCGAUCCGUUAAAAUUGUUCCUGCUUGUGCCAUUAUGAUCAGUUCAUAUGAAUUAGGAAAGUCGU	0.236 ratio
UGUGUAGCCUUUUUUAAUAUCCUUAAUGAGUUAAAUGACUAUGCAGGACAGCGAGAAGUUGCCGCAGAAGAAAUGGCGCACAGAGUGUAUGGUGAAUUAAUGAGAUAUGCUCAUGAUCUG	0.973 ratio
AUAUCUUUCGUUUUGGCUUGGUUCGAGGAAGGGGAAGAAACGAUUACAGCCUUUGCCGAGCCGUUUGUAAUUCUGCUUAUCUUGGUAGCCAAUGCAAUCGUGGGUGUGUGGCAGGAAAGA	0.334 ratio

Set 3
Target: Prothrombin, mature alpha-thrombin (F2, Homo sapiens, UniProt P00734)
Method: aptamer microarray, sandwich
Form: DNA with 2'F-ANA
Medium: in vitro
Concentration: 200 nM
Setting: whole 15-mer aptamer, many near background
Together with: Cy3 exosite-II aptamer, 400 nM
Direction: higher = stronger binding
Oligonucleotide: GGTTGGTGTGGTTGG
Modification	mean fluorescence intensity
2'F-ANA at 1 3 4 5 8 9 12 13	80.1 a.u.
2'F-ANA at 2 4 5 9 10 11 12 14	46.3 a.u.
2'F-ANA at 4 11 13 14	83.2 a.u.
2'F-ANA at 4 5 6 8	82.3 a.u.
2'F-ANA at 2 3 5 6 10 11 12 13	57.4 a.u.
2'F-ANA at 1 2 6 7 8 9 12 13 14	69.3 a.u.
2'F-ANA at 1 3 4 7 8 9 10 11 12 13 14	78.2 a.u.
2'F-ANA at 2 3 7 8 9 11 12 13 14	449 a.u.
2'F-ANA at 2 5 7 11	73.7 a.u.
2'F-ANA at 2 3 4 7 8 14	413 a.u.
2'F-ANA at 1 2 4 6 9 10 13 14 15	70.6 a.u.
2'F-ANA at 2 5 11 12 13	101 a.u.
2'F-ANA at 2 3 4 6 7 10 11 12 13	214 a.u.
2'F-ANA at 3 4 5 9 10 11 15	56.6 a.u.
2'F-ANA at 3 5 9 12 13 14 15	59.1 a.u.
2'F-ANA at 1 6 7 11 14	52.1 a.u.
2'F-ANA at 1 2 3 4 8 9 10 11 14	51.5 a.u.
2'F-ANA at 1 3 5 6 7 8 11 12 14 15	54.1 a.u.
2'F-ANA at 1 3 4 6 10 12 13 14	58.3 a.u.
2'F-ANA at 2 3 4 5 7 8 9 11	85.2 a.u.

Set 4
Target: Histone acetyltransferase KAT6A, both winged helices, GST fusion (KAT6A, Homo sapiens, UniProt Q92794, residues 1-181)
Method: protein binding microarray
Form: double-stranded DNA, one strand shown
Medium: in vitro
Concentration: not given
Setting: 8-mer, flanks averaged, mean of 2 arrays, mostly near background
Relative to: not given
Direction: higher = stronger binding
Residues (chain): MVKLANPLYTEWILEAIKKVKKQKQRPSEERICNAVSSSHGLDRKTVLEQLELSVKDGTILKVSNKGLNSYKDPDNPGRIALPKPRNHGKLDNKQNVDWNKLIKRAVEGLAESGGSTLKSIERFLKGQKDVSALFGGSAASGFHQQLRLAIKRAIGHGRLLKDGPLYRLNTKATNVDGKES
Oligonucleotide	E-score
CATTCGTA	-0.072
ATGAGGCA	-0.214
AGAAACGC	0.151
GCATCAAC	0.0173
ACTGATAC	-0.0121
GTACGGTA	0.198
GCCACGTA	-0.0581
CATAGAAG	-0.0537
CGCATTGA	0.208
CCACATTA	-0.169
AAGAATGC	-0.101
GATGATGA	-0.075
GGGATAAC	0.0191
ACAAGGCC	-0.0886
ACGATTGC	0.0921
CGGTTTTC	0.155
ATTCTACG	-0.00148
CTCACCCC	-0.108
AACACATA	-0.204
ACGTCATA	0.0303
AAGCGTGT	0.197
GGTCCGAC	0.109
ATCATCTC	-0.116
ACAATGAA	-0.141

Set 5
Target: Phosphate system positive regulatory protein PHO4, full length, GST-tagged (PHO4, Saccharomyces cerevisiae, UniProt P07270, residues 1-312)
Method: competition protein-binding microarray
Form: double-stranded DNA, one strand shown
Medium: in vitro
Concentration: 2 µM
Setting: whole 60-bp probe, lowest competitor level
Together with: Cbf1 competitor, 0.05 µM
Direction: higher = stronger binding
Constant ends, left off below: … GTCTTGATTCGCTTGACGCTGCTG
Construct (chain): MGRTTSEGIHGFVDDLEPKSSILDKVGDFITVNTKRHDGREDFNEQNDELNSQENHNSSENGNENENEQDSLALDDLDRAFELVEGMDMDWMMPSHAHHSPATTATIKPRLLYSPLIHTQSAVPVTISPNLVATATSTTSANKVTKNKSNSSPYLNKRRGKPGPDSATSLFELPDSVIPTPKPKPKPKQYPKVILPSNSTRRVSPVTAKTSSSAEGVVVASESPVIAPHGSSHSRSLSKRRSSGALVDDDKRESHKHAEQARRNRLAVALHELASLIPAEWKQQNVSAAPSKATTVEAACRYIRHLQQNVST
Oligonucleotide	fluorescence intensity [a.u.]
TTCAGGGCTGCTCACAACGTGATGGATTTGAATTGA	11700
CCACAATCTGATGCTTTCGTGATGGATCCTCCAATT	3710
TCTGGCTTGCGCGGCCTCGTGCCAGTAAGTAGAAAA	11500
AAGCTCGGCTAAGGCAACGTGCATCCCTCTAGAGAC	11400
AAGTCAAAACACCGTCACACGAAAACCATAACCTGT	5190
AGTATGTTGGTCTTGGTCGTGCTGTAGGTTTTGAGT	8750
ACCCTCAAGCTTTGGCGCGTGCGGATCTATATAAGG	13100
AAAGCCTACGCGAGTCACGTTCCAGGAAGATGAAGG	10400
AAAAGAGCGCAAGTACACATGCGATGCAAGGGCGGC	7320
AAAGCGGTAATTTGACCTGTGGGTGCAGATATCTAT	4760
CTTCTGTAAATTTGTCACATTACTTGACGCGCCCCG	3830
CATATGGTATGATTGCACGTGGGACTCTAGGGGAAG	19000
CAATGCTTTCCCGGCCACGTCGACATGGAACATCTT	4910
TTTGTGGTTTTCAGCCGCGTGTATACCTTCAGCTTG	7480
CTTTCCCGATCTTGCCTCGTGGGTGTAGCACATTTG	14200
GAATATAGAGGTACGCTCGTGTCCAAGGACAACTAC	8750
CGGGGTTAAGTTTGATCGGTGGGTGGCTTGCAGCAG	4250
CGCGATTATGGGCCGCTCGTGACGGTAAAGGAAGCA	6100
CGTCCTAGTGATTGCTTAGTGGGTGCCATGAGGAAG	6290
TTTTTAATTTCTTATCATGCTCAATGTCAACAACTT	4990
CTTCTGTAAATTTGAGTAGTGGGTGGACGCGCCCCG	4530
ACCTTAAACACTCACCACGTGCAAACAACAGAATAT	17800
AAAGCGGTAATTTGTATAGTGGGTGCAGATATCTAT	4080
GTCTTCTTGAATCCACACGTGAATACTACCTTTTTT	13700
AAACAAATATTAGCTCGCGTGGCCGAATGGCAACGC	8270

Repeated from above (set 4):
Oligonucleotide	E-score
CATAGAAG	-0.0537
CGCATTGA	0.208
CCACATTA	-0.169
AAGAATGC	-0.101
GATGATGA	-0.075
GGGATAAC	0.0191
ACAAGGCC	-0.0886
ACGATTGC	0.0921
CGGTTTTC	0.155
ATTCTACG	-0.00148
CTCACCCC	-0.108
AACACATA	-0.204
ACGTCATA	0.0303
AAGCGTGT	0.197
GGTCCGAC	0.109
ATCATCTC	-0.116
ACAATGAA	-0.141
